Published values of several laboratories.
Every numbered part comes from another study and shows a few of its results, in no order.
Chain of UniProt Q9H093 (whole entry, looked up): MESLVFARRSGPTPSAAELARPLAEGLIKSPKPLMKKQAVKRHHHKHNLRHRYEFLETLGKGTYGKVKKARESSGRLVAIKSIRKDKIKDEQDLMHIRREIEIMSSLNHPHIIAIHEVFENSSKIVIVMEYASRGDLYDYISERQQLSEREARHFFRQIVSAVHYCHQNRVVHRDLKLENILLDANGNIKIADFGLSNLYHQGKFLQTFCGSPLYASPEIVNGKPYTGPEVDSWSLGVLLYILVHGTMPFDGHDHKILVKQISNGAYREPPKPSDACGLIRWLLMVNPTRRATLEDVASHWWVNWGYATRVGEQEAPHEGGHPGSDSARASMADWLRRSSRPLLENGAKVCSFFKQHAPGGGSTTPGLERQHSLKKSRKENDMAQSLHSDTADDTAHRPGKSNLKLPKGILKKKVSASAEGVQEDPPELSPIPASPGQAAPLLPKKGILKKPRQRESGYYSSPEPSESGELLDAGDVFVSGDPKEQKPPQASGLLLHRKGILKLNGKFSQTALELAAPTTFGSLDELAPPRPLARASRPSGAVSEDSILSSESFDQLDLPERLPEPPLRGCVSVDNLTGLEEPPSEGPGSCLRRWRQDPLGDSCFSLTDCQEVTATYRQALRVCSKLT
Chain of UniProt Q9HCP0 (whole entry, looked up): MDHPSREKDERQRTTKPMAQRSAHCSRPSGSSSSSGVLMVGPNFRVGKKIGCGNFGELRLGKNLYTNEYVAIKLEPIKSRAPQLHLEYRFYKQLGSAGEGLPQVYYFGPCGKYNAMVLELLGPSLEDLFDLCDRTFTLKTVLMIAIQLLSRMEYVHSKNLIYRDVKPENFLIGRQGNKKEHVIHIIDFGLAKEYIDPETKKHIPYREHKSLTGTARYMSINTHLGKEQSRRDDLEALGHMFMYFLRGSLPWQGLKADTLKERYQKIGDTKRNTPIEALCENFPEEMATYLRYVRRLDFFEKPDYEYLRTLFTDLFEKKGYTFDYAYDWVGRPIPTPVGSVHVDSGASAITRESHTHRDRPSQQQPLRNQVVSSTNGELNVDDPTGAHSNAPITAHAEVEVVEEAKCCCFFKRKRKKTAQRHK
Chain of UniProt P51617 (whole entry, looked up): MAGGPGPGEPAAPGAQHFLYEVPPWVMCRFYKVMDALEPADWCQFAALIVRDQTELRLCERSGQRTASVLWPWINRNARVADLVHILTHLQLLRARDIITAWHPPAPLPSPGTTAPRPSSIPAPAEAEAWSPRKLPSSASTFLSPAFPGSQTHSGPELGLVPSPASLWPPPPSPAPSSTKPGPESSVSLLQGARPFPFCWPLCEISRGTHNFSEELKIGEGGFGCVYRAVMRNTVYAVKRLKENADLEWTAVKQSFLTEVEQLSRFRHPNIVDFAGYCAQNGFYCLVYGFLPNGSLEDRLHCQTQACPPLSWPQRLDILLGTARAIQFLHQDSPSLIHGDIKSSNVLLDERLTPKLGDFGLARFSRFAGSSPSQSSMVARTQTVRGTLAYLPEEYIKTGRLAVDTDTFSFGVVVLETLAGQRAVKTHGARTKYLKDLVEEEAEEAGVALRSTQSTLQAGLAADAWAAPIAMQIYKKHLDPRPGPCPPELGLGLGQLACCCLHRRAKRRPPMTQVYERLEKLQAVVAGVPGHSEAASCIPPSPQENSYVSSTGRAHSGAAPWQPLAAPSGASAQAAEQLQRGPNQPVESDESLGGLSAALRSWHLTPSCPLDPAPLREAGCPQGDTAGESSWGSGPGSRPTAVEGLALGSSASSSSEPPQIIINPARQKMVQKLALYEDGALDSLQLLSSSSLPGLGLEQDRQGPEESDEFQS
Chain of UniProt P29597 (whole entry, looked up): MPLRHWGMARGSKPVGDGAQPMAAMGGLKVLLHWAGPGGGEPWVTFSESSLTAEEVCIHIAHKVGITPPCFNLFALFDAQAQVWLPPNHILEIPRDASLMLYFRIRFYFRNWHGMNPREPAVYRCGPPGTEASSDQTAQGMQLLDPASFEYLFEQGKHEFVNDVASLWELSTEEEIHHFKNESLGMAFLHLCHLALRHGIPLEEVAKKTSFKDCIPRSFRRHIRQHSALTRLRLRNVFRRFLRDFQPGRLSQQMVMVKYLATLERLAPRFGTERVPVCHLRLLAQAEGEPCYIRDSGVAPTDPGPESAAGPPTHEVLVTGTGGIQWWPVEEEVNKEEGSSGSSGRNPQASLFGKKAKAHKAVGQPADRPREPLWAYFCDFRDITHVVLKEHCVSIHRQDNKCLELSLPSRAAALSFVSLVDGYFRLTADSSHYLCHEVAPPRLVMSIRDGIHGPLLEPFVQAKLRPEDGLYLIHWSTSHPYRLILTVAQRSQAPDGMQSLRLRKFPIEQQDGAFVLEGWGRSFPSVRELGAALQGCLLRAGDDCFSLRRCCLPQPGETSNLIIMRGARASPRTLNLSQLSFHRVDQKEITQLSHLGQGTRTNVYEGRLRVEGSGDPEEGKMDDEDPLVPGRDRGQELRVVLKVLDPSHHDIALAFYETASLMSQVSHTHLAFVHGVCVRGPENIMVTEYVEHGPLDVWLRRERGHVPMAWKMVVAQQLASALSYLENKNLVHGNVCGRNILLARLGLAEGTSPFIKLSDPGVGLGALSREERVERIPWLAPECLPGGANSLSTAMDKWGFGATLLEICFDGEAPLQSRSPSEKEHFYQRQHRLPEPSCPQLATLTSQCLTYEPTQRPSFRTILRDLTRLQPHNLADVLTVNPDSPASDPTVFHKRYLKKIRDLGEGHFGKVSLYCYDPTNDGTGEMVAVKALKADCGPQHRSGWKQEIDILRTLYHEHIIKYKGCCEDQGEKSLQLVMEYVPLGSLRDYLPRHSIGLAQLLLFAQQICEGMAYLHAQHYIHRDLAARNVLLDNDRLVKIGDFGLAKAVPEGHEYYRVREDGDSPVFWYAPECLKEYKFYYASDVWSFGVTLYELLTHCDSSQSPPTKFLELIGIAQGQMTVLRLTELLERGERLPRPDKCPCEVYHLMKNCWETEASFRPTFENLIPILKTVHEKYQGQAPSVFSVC

Block 1
SMILES: CNC(=O)c1ccc(-c2cnn3ccc(C(=O)N(C)c4ccc(Cl)c(C(=O)OC)c4)cc23)cc1
Target: Phosphatidylinositol 4-kinase (Cryptosporidium parvum, UniProt Q5CVD3)
Read-out: enzyme activity
Action: inhibitor
Method: ADP-Glo
It gave 99% for inhibition (8.23e-05 µM).
For 3.05e-06 µM: inhibition read 41.4%.
9.15e-06 µM — inhibition: 85%.
0.000741 µM — inhibition: 101%.

Block 2
Target: Muscarinic acetylcholine receptor M3 (CHRM3, Homo sapiens, UniProt P20309)
Chain of UniProt P20309 (whole entry, looked up): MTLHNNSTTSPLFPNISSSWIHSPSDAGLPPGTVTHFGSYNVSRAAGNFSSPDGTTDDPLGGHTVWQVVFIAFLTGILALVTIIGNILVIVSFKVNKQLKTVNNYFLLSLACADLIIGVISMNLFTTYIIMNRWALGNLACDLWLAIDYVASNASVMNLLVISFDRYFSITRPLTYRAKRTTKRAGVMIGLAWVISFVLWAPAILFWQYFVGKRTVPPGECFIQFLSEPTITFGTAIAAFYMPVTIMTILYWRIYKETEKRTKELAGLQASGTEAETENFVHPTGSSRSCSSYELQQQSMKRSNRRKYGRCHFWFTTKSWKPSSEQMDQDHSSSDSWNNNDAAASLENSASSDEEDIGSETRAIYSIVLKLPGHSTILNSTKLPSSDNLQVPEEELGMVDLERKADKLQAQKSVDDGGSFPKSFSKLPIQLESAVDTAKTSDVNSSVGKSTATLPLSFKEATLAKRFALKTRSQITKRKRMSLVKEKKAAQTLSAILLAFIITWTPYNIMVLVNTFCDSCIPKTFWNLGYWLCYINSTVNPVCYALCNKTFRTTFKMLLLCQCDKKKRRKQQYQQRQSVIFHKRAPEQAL
Read-out: binding
Method: radioligand binding
Tested at: 10 µM
O=C(Nc1cnc(Oc2ccc(F)cc2)nc1)N1CCc2ncccc2[C@@H]1c1ccc(F)cc1 has an inhibition of -12.3%.
For COc1nc2ccc([C@@](O)(c3ccccc3)C3CCN(C(C)=O)CC3)cc2c(Cl)c1Cc1ccc(-n2cccn2)cc1, the inhibition was 0.49%.
With Cc1cc(-n2nc(Cc3cc(F)cc(C(F)(F)F)c3)nc2C)ccc1C(N)=O the inhibition was 1.72%.
CN1C(=O)[C@@H](N2CCc3cn(Cc4ccccc4)nc3C2=O)COc2ccccc21 has an inhibition of 0.09%.
Cc1c(N2CCCC2)nc2ccc(Br)cc2c1C(=O)NC[C@H](CCC(=O)O)c1ccccc1Cl has an inhibition of -0.57%.
For COCCc1ccc(-c2c(C)nc3c(N4CCOCC4)ccnn23)cn1, the inhibition was 6.41%.
Cc1cc(C)c(-n2ccn3nc(-c4cccnc4)cc23)cc1NC(=O)c1cc(C#N)cc(S(F)(F)(F)(F)F)c1 gave an inhibition of 10.5%.
The inhibition of O=C([C@H]1C[C@H](O)CN1c1ccc(Cl)cc1)N1CC2COCC(C1)N2Cc1ccc(Cl)cc1 is reported as 24.1%.
O[C@]1(C(F)(F)F)CCCC[C@H]1Nc1ccc(F)cc1 gave an inhibition of 4.73%.
The inhibition of CC(=O)N1CCC(c2ccc(C(=O)NC(=N)N)cc2C(F)(F)F)CC1 is reported as 12.1%.
The inhibition of CNC(=O)Nc1ccc2c(c1)[C@]1(CC2)OC(=O)N(CC(=O)N(Cc2ccc(F)cc2)[C@@H](C)C(F)(F)F)C1=O is reported as 8.23%.
COCc1nc2cnc3cc(-c4c(C)noc4C)c(OC[C@H]4CCNC4)cc3c2n1[C@H](C)c1ccccc1 gave an inhibition of -3.35%.
With O=C(NC[C@@H]1[C@H]2CN(C(=O)OCc3cc(C(F)(F)F)cc(C(F)(F)F)c3)C[C@@H]12)c1ccc2[nH]nnc2c1 the inhibition was -25.5%.
With COc1cccc(CNC(=O)c2nc3scc(COCc4ccc(C(=O)O)cc4)c3c(=O)[nH]2)c1 the inhibition was -13%.
CS(=O)(=O)NCC[C@H](NC(=O)c1cncc2c1cnn2-c1ccc(F)cc1)c1ccnc(S(C)(=O)=O)c1 has an inhibition of -13.8%.
O=C(Nc1ccc(-n2nc(-c3cccnc3)cc2C(F)(F)F)cn1)c1ccc(-c2ccccc2)c(F)c1 gave an inhibition of 3.71%.
CN1CCN(C(=O)C(C)(C)c2ccc(C(=O)Nc3cn4cc(-c5ccncc5)ccc4n3)cc2)CC1 has an inhibition of 21.1%.
CCCOc1ccc([C@H]2[C@H](C(=O)O)[C@@H](c3ccc4c(c3)OCO4)CN2CC(=O)Nc2c(CC)cccc2CC)cc1 gave an inhibition of -5.06%.

Block 3
Structure (SMILES): CCn1cnc2c(Nc3cccc(Cl)c3)nc(N[C@H]3CCCC[C@H]3N)nc21
Read-out: enzyme activity
Action: inhibitor
Tested at: 0.5 µM
Relative to: control
The remaining activity was 93.7% (NUAK2 (Homo sapiens, UniProt Q9H093)).
It gave 56.8% for remaining activity (CSNK1G1 (Homo sapiens, UniProt Q9HCP0)).
For IRAK1 (Homo sapiens, UniProt P51617): remaining activity read 81.7%.
It gave 110% for remaining activity (TYK2 (Homo sapiens, UniProt P29597)).

Block 4
Target: Calcium/calmodulin-dependent protein kinase type II subunit alpha (CAMK2A, Homo sapiens, UniProt Q9UQM7)
Chain of UniProt Q9UQM7 (whole entry, looked up): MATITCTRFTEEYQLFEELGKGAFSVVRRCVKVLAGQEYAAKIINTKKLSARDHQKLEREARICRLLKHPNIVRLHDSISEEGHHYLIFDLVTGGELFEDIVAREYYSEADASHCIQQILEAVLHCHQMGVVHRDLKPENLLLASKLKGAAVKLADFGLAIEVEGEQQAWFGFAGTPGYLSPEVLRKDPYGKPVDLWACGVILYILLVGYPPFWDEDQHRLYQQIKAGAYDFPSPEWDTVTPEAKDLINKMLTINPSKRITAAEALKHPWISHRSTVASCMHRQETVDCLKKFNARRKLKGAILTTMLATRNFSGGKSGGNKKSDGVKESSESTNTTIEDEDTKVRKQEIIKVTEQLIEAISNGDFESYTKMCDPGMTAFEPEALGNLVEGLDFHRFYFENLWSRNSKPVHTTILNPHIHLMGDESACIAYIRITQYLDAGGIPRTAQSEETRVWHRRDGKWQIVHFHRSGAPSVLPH
Read-out: enzyme activity
Action: inhibitor
Tested at: 10 µM
CC[C@]12C=CCN3CC[C@]4(C(=C(C(=O)OC)C1)Nc1ccccc14)[C@@H]32 has an inhibition of 30%.
The inhibition of C[C@@H]1CC[C@@]2(OC1)O[C@H]1C[C@H]3[C@@H]4CC=C5C[C@@H](O[C@@H]6O[C@H](CO)[C@@H](O[C@@H]7O[C@@H](C)[C@H](O)[C@@H](O)[C@H]7O)[C@H](O)[C@H]6O[C@@H]6O[C@@H](C)[C@H](O)[C@@H](O)[C@H]6O)CC[C@]5(C)[C@H]4CC[C@]3(C)[C@H]1[C@@H]2C is reported as -7%.
Nc1ncnc2c1ccn2[C@@H]1O[C@H](CO)[C@@H](O)[C@H]1O has an inhibition of 4%.
With O=C(O)c1cc2c(c3c1c([N+](=O)[O-])cc1ccccc13)OCO2 the inhibition was -22%.
CC1=C[C@]23C(=O)[C@@H](C=C(COC(=O)c4ccccc4)[C@@H](O)[C@]2(O)[C@H]1OC(=O)c1ccccc1)[C@H]1[C@@H](C[C@H]3C)C1(C)C gave an inhibition of 5%.

Block 5
Target: CRBN/Zinc finger protein Helios (Homo sapiens, UniProt Q96SW2+Q9UKS7)
Chain of UniProt Q96SW2 (whole entry, looked up): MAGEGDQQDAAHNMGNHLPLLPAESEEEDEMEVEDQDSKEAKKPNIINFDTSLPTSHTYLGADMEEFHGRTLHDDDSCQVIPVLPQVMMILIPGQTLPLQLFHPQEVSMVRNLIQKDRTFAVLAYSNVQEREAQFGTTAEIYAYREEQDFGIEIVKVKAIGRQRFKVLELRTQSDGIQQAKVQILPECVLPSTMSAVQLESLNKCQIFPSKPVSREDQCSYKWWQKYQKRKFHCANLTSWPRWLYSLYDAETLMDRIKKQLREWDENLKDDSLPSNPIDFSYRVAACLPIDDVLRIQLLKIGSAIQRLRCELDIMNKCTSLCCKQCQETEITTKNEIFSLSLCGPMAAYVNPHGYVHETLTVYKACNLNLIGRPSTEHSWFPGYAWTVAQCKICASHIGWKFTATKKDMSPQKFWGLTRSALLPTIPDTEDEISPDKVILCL
Chain of UniProt Q9UKS7 (whole entry, looked up): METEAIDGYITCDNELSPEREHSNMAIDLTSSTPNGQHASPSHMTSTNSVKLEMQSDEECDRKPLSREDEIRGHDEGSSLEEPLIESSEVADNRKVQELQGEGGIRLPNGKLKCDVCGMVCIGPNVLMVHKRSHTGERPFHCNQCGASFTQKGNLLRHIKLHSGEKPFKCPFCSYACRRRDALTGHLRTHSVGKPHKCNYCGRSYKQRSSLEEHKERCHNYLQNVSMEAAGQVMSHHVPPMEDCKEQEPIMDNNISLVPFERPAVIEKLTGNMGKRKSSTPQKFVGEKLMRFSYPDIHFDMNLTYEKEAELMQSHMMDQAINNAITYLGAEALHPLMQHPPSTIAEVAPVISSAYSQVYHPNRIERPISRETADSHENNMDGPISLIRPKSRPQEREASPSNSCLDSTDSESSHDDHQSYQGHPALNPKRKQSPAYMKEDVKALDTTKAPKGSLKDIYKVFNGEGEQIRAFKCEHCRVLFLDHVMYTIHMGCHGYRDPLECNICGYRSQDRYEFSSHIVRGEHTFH
Action: degrader
Method: HiBiT
Cell line: HEK293
Tested at: 0.5081 nM
The protein remaining of O=C1CCC(N2Cc3c(ccc4c3OCC43CCN(CC4CCCCC4)CC3)C2=O)C(=O)N1 (stereo not shown) is reported as 101%.
The protein remaining of O=C1CCC(N2Cc3c(ccc4c3OCC43CCN(Cc4ccccc4)CC3(F)F)C2=O)C(=O)N1 (stereo not shown) is reported as 98.7%.
For O=C1CCC(N2Cc3c(ccc4c3OCC43CCN(Cc4ccsc4)CC3)C2=O)C(=O)N1 (stereo not shown), the protein remaining was 94.6%.
The protein remaining of O=C1CCC(N2Cc3c(ccc4c3OCC43CCN(Cc4ccccn4)CC3)C2=O)C(=O)N1 (stereo not shown) is reported as 97.8%.
O=C1CCC(N2Cc3c(ccc4c3OCC43CCCN(Cc4ccccc4)CC3)C2=O)C(=O)N1 (stereo not shown) gave a protein remaining of 92.9%.
O=C1CCC(N2Cc3c(ccc4c3OCC43CCN(Cc4ccccc4)C3)C2=O)C(=O)N1 (stereo not shown) has a protein remaining of 96.9%.

For quick reference, copied from above (block 2):
O[C@]1(C(F)(F)F)CCCC[C@H]1Nc1ccc(F)cc1 gave an inhibition of 4.73%.
CN1CCN(C(=O)C(C)(C)c2ccc(C(=O)Nc3cn4cc(-c5ccncc5)ccc4n3)cc2)CC1 has an inhibition of 21.1%.
With O=C(NC[C@@H]1[C@H]2CN(C(=O)OCc3cc(C(F)(F)F)cc(C(F)(F)F)c3)C[C@@H]12)c1ccc2[nH]nnc2c1 the inhibition was -25.5%.
CS(=O)(=O)NCC[C@H](NC(=O)c1cncc2c1cnn2-c1ccc(F)cc1)c1ccnc(S(C)(=O)=O)c1 has an inhibition of -13.8%.
